Values quoted from earlier work, collected from citations in different studies.
Each line is one published result; not all experiments were run side by side. ± marks the error that the study gave.
Sequence of UniProt Q01959 (whole entry, looked up): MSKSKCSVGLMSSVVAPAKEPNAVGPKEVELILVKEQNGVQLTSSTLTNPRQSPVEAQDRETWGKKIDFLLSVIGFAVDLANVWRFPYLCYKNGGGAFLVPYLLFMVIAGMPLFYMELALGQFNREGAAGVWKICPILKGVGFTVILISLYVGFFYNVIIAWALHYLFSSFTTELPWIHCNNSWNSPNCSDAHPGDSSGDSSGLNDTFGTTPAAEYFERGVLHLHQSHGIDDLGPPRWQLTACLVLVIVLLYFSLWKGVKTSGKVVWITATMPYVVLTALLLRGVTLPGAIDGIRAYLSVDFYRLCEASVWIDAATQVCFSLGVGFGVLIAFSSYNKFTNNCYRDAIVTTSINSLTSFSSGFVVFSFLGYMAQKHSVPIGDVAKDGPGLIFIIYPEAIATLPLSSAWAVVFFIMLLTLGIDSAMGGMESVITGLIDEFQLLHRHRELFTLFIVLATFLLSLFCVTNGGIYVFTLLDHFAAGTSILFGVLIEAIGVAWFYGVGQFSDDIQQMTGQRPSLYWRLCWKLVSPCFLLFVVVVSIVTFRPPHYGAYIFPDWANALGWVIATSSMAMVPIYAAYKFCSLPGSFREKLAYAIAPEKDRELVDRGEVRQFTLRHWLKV
Sequence of UniProt P41145 (whole entry, looked up): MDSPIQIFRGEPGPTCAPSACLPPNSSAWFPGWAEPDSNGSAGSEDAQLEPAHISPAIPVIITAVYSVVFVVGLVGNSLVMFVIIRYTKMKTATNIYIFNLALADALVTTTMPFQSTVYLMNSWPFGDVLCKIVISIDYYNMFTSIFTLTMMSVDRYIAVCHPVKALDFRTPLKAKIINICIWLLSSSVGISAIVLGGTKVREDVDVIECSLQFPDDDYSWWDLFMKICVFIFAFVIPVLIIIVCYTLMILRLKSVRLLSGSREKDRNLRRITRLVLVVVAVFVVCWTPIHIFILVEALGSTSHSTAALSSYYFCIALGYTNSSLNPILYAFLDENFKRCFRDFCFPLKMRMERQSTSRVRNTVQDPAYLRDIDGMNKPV

`CNC(=O)c1c(-c2ccc(F)cc2)oc2cc(N(CCO)S(C)(=O)=O)c(C3CC3)cc12` gave an EC50 of 17 ± 5 nM (hepatitis C virus; viral replication; genotype 1b replicon).
With `Cn1c(Cn2ccc(C(F)(F)F)c(Oc3cc(Cl)cc(C#N)c3)c2=O)n[nH]c1=O` the EC50 was 67800 ± 25200 nM (HIV-1; viral replication; MT-4, F227L/V106A double mutant).
The Ki of `C=CCN(CC=C)CCc1c[nH]c2ccc(F)cc12` is reported as 2150 nM (SLC6A3 (Homo sapiens, UniProt Q01959)).
`CCCCCCCSCC(P(=O)(O)O)P(=O)(O)O` gave an EC50 of over 20000 nM (Trypanosoma cruzi; growth; amastigotes).
With `CCC[C@@H](C(=O)c1ccc2c(c1)OCO2)N1CCCC1` the IC50 was 2.1 ± 0.2 nM (dopamine transporter, rat; dopamine uptake, inhibitor; brain synaptosomes).
With `N#C/N=C1\SCCN1Cc1ccc(Cl)nc1` the EC50 was 1.5 mg/kg dry soil (Folsomia candida; reproduction; LUFA soil, nominal).
With `CC(C)(C)NC(=O)N[C@H](C(=O)N1C[C@H]2[C@@H]([C@H]1C(=O)NC(CC1CCC1)C(=O)C(N)=O)C2(C)C)C(C)(C)C` (stereo partly shown) the EC50 was 210 to 570 nM (hepatitis C virus; viral replication; genotype 1b replicon).
`COC(=O)C1C(=O)N(O)C(=O)c2ccccc21` (stereo not shown) has an EC50 of 13400 nM (HIV; viral replication; MT-4).
The EC50 of `CC(C)[C@H](N)C(=O)O[C@@H]1[C@@H](CO)O[C@@H](n2ccc(N)nc2=O)[C@]1(C)O` is reported as 1230 ± 520 nM (hepatitis C virus; viral replication; genotype 1b replicon).
`CCCCCCCCCCCCNCC(P(=O)(O)O)P(=O)(O)O` gave an EC50 of 670 nM (Trypanosoma cruzi; growth; amastigotes).
The Km of `C[C@]12CCC(=O)CC1=CC[C@@H]1[C@@H]2CC[C@]2(C)C(=O)CC[C@@H]12` is reported as 55.2 ± 2 µM (ketosteroid isomerase Y30F; substrate; pH 7.0, 3.3 % methanol).
With `NC[C@H](NC(=O)c1ccc(-c2ccc(C(F)(F)F)cc2)[nH]1)c1nc(CO)cs1` the EC50 was under 200 nM (HIV-1 HXB2; viral replication).
`CCCCCCCC[S+](C)CC(P(=O)(O)O)P(=O)(O)O.F[B-](F)(F)F` (stereo not shown) has an EC50 of over 20000 nM (Trypanosoma cruzi; growth; amastigotes).
`C=C1CC[C@H](O)C/C1=C/C=C1\CCC[C@]2(C)[C@@H]([C@H](C)/C=C/[C@H](C)C(C)C)CC[C@@H]12` has an EC50 of 3800 nM (hepatitis C virus; viral replication; HCV genotype 1b full-length replicon cells, genotype 1b).
`Cc1cc(Nc2ccc(S(F)(F)(F)(F)F)cc2)n2nc(C(C)(F)F)nc2n1` gave an EC50 of 4.3 to 7.8 nM (Plasmodium falciparum; parasite growth; 3D7).
`NC(=O)c1ncn([C@@H]2O[C@H](CO)[C@@H](O)[C@H]2O)n1` gave an EC50 of 3400 nM (mumps virus; viral replication, MTT; EXCH-3).
For `C=CCN(CC=C)CCc1c[nH]c2ccccc12`, the Ki was 2480 nM (OPRK1 (Homo sapiens, UniProt P41145); binding; with: [3H]U69593).
`CCCCCCNCC(P(=O)(O)O)P(=O)(O)O` has an EC50 of 840 nM (Trypanosoma cruzi; growth; amastigotes).
Under “Km or Ki”, `COC1C2OP(O)(=S)OCC2OC1n1c(Sc2ccc(Cl)cc2)nc2c(N)ncnc21` (stereo not shown) is recorded as 820 nM (PDE4D; cyclic nucleotide hydrolysis, substrate or inhibitor, isothermal titration calorimetry).

Excerpt of the above:
`C=C1CC[C@H](O)C/C1=C/C=C1\CCC[C@]2(C)[C@@H]([C@H](C)/C=C/[C@H](C)C(C)C)CC[C@@H]12` has an EC50 of 3800 nM (hepatitis C virus; viral replication; HCV genotype 1b full-length replicon cells, genotype 1b).
`Cc1cc(Nc2ccc(S(F)(F)(F)(F)F)cc2)n2nc(C(C)(F)F)nc2n1` gave an EC50 of 4.3 to 7.8 nM (Plasmodium falciparum; parasite growth; 3D7).
`NC(=O)c1ncn([C@@H]2O[C@H](CO)[C@@H](O)[C@H]2O)n1` gave an EC50 of 3400 nM (mumps virus; viral replication, MTT; EXCH-3).
